# Experimental data collected from several papers.
# Numbered parts are unrelated; each lists some results of a single study.

# Study 1 — technique: protein binding microarray; form: double-stranded DNA, one strand shown; medium: in vitro; tested at: not given; reference: not given; direction: higher = stronger binding
# Target: Histone acetyltransferase KAT6A, winged helix 2, GST fusion (KAT6A, Homo sapiens, UniProt Q92794, residues 85-181)
# Notes: 8-mer, flanks averaged, mean of 2 arrays, mostly near background
# Residues (chain): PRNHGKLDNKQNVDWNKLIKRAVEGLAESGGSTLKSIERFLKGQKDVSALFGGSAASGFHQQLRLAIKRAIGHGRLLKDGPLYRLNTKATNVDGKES
Sequence,E-score
GTGAGGAA,0.0375
GCCAAGCC,0.054
GGCGACCA,0.0495
GATTCGAC,0.0705
GCAAGGCA,0.186
TACTGCAA,-0.103
GCCGTAGA,0.12
AGTCGCGA,0.11
ACTTAGAT,0.0192
GGATTAAA,0.107
CGTTTAAC,-0.026
ACTTACAC,-0.157
AGCTACCA,-0.0764
AACAGCCT,-0.0724
GATGGCAC,-0.125
GGAGGCCA,0.0327
CAATTTAC,-0.0449
CAAGGGTC,-0.127
ACGATATG,-0.0918
GTATATCA,0.0232

# Study 2 — technique: protein-binding microarray; form: double-stranded DNA, one strand shown; medium: in vitro; tested at: 250 nM; notes: 60-bp whole probe; with: salmon DNA 0.4 mg/ml; reference: random background probes; direction: higher = stronger binding; shared flanks, not repeated: GCCTAGCAC … GTCTTGATTCGCTTGACGCTGCTG
# Target: Interferon regulatory factor 7, full length, phosphomimetic (IRF7, Homo sapiens, UniProt Q92985, residues 1-503, S101K/S471D/S472D/S475D/S476D/S477D/S483D/S484D/S487D)
# Residues (chain): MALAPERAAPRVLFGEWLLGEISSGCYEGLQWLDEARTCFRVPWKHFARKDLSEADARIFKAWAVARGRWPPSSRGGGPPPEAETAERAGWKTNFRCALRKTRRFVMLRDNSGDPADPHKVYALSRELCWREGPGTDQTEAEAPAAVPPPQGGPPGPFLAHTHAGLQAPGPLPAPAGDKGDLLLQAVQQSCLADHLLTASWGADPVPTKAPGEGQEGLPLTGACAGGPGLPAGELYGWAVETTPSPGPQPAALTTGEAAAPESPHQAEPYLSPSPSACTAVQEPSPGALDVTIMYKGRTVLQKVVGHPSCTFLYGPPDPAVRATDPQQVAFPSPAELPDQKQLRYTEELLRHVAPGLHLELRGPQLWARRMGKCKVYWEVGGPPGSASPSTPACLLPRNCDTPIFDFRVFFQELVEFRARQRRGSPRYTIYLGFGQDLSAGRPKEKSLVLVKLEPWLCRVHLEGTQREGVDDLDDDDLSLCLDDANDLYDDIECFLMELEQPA
Sequence,log fluorescence
TTAGAATTCGGGTTTCGATTAGTGCTA,7.46 z-score
GACGTACTGGGGTATCGAGACGTGCTA,-0.315 z-score
CCAGGGACAAAGCGGTGCGAGTGCTAG,-0.562 z-score
TTGAGTCTTCTCCTCTAGGTGTGCTAG,-0.125 z-score
TCAGCCATCAATATCTGACTGTGCTAG,-0.596 z-score
GTCCACTCCAGACCGTTTGCGTGCTAG,1.13 z-score
TTAGGTTTCGGTATCGGGTAGTGCTAG,10.3 z-score
TTAGGACTGCTTATCCTTTGGTGCTAG,0.0706 z-score
GACGGTTCCCTTTTGCTGACGTGCTAG,3.55 z-score
TTAGGTATCCTTCTCCCTTAGTGCTAG,0.626 z-score
TTAGGTTTCGGTTACGGTTAGTGCTAG,9.77 z-score
TTAGGTTTCGGTTTTCGGTTAGTGCTA,14 z-score
TAAGGTCTCGGTTTCGGTTAGTGCTAG,11.6 z-score
TCACATTTATTTACTCTCACTGTGCTA,1.05 z-score
TTAGCACTGAGTTTCGATTAGTGCTAG,7.16 z-score
TCACATCTCTCTTAAATACTGTGCTAG,0.558 z-score
GACGGTTTCGACTATCGGGTCGTGCTA,5.88 z-score
GACGGACAGGGGTATCGGGACGTGCTA,-0.684 z-score
CTAGTTAAGGTACACCAGCAGTGCTAG,0.862 z-score
TTTTCCAGAGGCCCAGCCAGGTGCTAG,1.64 z-score
GACGGTTTTGACTATCGGGACGTGCTA,0.19 z-score
TCACCAATCTCTCTTCAACTGTGCTAG,-0.159 z-score
GACGAACTGATTCTCGAGACGTGCTAG,0.337 z-score
AAGCAAGGTGGAGAAGAGAAGTGCTAG,-1.07 z-score
GACTAACTGAGTCTCGAGACGTGCTAG,0.652 z-score

# Study 3 — technique: RNA Bind-n-Seq; form: RNA; medium: in vitro; tested at: 365 nM; reference: no-protein control; direction: higher = stronger binding
# Target: RNA binding protein fox-1 homolog 2, RRM domain, GST-SBP tag (RBFOX2, Homo sapiens, UniProt O43251-10, residues 100-194)
# Notes: natural RNA segment, single round, ends assumed
# Shared flanks, not repeated: GGGAGUUCUACAGUCCGACGAUC … UGGAAUUCUCGGGUGCCAA
# Residues (chain): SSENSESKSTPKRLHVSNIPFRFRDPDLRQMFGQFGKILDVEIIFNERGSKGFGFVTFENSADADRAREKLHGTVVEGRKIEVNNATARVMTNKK
Sequence,RBNS enrichment (R)
GAAAGUUAAAACUAGCUUUAGAGUAAGGAUGAGAAACUUGAGUGUUUUUAAUUUAAAGAUAAAAGCCUGUGUUUUACACAUUCUUUUUUGGUGUUCAUAGCUUCUUCUCA,0.345
GUGCAUGCCUGUAAUCCCAGGUACUCGGGAGGCCAAGGCAGGAGAAUCGCUUGAACCCAGGAGGUGAAGGUUACGCUAAGCCAAGAUCACGCCAUUGCACUGCAGCCUGG,2.27
GGCUUUGCUGAGGCUUCCCCUUGGCCAUGUGAAAGCCCGCCUUGUUGCCUGCUUUGUGCUUUCUGCACCAGACAACCUGAUGGAACAUUUGCACCUGAGUUGUACAUUUU,0.216
GUCUUAAAACAAUACAUGUAUUUAAAAUAAUGCAGUCAUAACCUAAUUAAUGGAUCAUCAGCUUGACCUCUGUAAAGUGGCAUCUUAAAACUUUUACAGAUUUUUGCACA,1.11
GGCCGGAGGUGUGUGUGGGGGGUUGCUCUGUUGUUUCCUUCCUAAUAAAAUAAAGACGUGUUGCCUUGUGUUGGGCUUCGUGUCACUCAUUUCUGCACUGAACAGUAGAU,0.331
CAAAUCAAAGCUUCCUUCAAAUAGAUGGUCCCAUAGUCUGUAUCCAAAUAAUGAAUCUUCGGGUGUUUCCCUUUAGCUAAGCACAGAUCUACCUUGGUGAUUUGGACCCU,0.436
CUGGCCUCAAACUUAGAGAUCUGCCUGACUCUGCCUUUGAGGGCUGGGACGAAUGCCACCACUGCCCAACUAAGAUUCCAUUAAAAAAAAAAAAAGUUCAAGAUAAUUAA,1.4
GAGAAAUGUCUUUUCAUGAAUCCUAAGGACAUGCUGUGUCAGCUAAACCUACAAUUGAUUGCUUCUAGAGUUUAAAAAGGGAAAGUUGUGCUUGUAUUUGCAAGUUGAAU,1.67
AAGCCCUAGAGCCUUGAACCAGGAAUAUCCAGGAAGAGGAAAUUCCCUUUGAGCCCCCAGAUGGUAUUGCAGCUUCACUGCCUGCGUUCCUGGGAGCGUCUGGAGCUCAC,0.451
UCUAUUUUUAAAUCUUCUCUUAAAUAUACUGAGAAUCUCUAGUCUCCUUUUCUAAAGGCUGAUCCAACUACACUUGUGGGCUAUUUUUCCAAGCUUUGUGUGAAACUUGA,0.576
UAAAUCAUAAUGUGUAAUAAUUGUGUAUCAUUUUGUCUACAAUAAAACGUUUAGUAUUUGCAAUGGGUUUUCUGAGCUGGAAGCACCGUACUUAGAUGGGCUCAUUGAGA,0.278
GAGCUGGGCCGCACCUACCCUGGGGCCCCAGGGAGCAGGACGCUCCGGGGCCCAGCACGUUGCCCUGGGCCUGUGGCCGGAGUCGGAGUCCUCUCUCCUCCUCCUGGCUU,0.657

# Study 4 — technique: RNA Bind-n-Seq; form: RNA; medium: in vitro; tested at: 1 µM; notes: whole 134-nt RNA, ends assumed; with: 150 mM KCl; reference: input library; direction: higher = stronger binding
# Target: Ras GTPase-activating protein-binding protein 1, C-terminal RGG region (G3BP1, Homo sapiens, UniProt Q13283)
# UniProt Q13283, sequence (whole entry, looked up): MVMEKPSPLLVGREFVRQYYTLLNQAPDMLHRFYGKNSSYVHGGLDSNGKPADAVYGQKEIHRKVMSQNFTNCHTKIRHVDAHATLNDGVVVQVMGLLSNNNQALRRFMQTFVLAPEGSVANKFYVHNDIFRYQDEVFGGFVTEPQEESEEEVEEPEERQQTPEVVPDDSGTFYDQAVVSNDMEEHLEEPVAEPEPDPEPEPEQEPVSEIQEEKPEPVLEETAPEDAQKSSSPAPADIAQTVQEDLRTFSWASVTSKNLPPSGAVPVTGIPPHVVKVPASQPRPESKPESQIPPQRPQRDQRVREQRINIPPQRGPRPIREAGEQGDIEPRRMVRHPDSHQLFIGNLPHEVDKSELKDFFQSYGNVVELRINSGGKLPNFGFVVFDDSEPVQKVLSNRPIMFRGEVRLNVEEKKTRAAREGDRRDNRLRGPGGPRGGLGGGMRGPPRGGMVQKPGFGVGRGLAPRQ
# Shared flanks, not repeated: GGGAGUUCUACAGUCCGACGAUC … UGGAAUUCUCGGGUGUCAAGG
Sequence,log2 enrichment
UAACUUUAGAGGAGGAUCUGAUGGAUAUGGCAGUGGACGUGGAUUUGGGGAUGGCUAUAAUGGGUAUGGAGGAGGACCUUGAGGUGGCAA,-0.995
GCAGGAAGUAAAAACAAAUGGAAAUGCUUCGGAUUGUGGCAGGGGUGGGGGUUGCUAAGGAAAGGGUGGGAUGGGAGUGGGUAAAGAGUU,1.78
CACAGACAACUCGCACCCACACAGACACAGAGGGAAGGGGUUGGGAUGGGGACAGGGUGCACAGCAGGGCGGGGUAGGACCCCAGCCCCU,0.379
UCCCUGAGACGGCGGGCAACAGCAUCGGCAGGAACGCCAUGGCCGUCCCCUCCCAGCUCUUACCUUACCAUCGACCUCACAGACGACACA,-0.559
AGUCCUGUGCUACACAUCGUAUGUACCGAAUCGGGAAAAAAAGGGAAAAAGGGAGGGAAAGUAUUAUGUUACGCCGUUCGGAUCUGCACU,0.905
UGGGAGGUGGAUUUUGUUUAUUUUUUUAGCUCAUUUCCAGGGGUGGGAAUUUUUUUUUAAUUUGUGUCAUGAAUAAAGUUGUUUUUGAAA,3.33
UCCUGUGCUACACAUCGUAUGUACCGAAUCGGGGUUUUUGGGUUUUUGGGUUUUUGGGGAAAGUAUUAUGUUACGCCGUUCGGAUCUGCA,0.312
CUCAAGUCCUGUGCUACACAUCGUAUGUACCGAAUCGGUGGAAAAAAAGGUGGAAAGUAUUAUGUUACGCCGUUCGGAUCUGCACUUCCA,-1.1
CCUGUGCUACACAUCGUAUGUACCGAAUCGGGCCCCCCGGCCCCCCGGGGCCCCCCGGGGAAAGUAUUAUGUUACGCCGUUCGGAUCUGC,-1.47
GUCCUGUGCUACACAUCGUAUGUACCGAAUCGGGGAGGGGUUUGGGGUUUUUUUGGGGAAAGUAUUAUGUUACGCCGUUCGGAUCUGCAC,2.32
AGUCCUGUGCUACACAUCGUAUGUACCGAAUCGGAAAGGAAAAAAAGGUUUUUUUGGAAAGUAUUAUGUUACGCCGUUCGGAUCUGCACU,-2.2
UCCACCCCUUCUUCCUCCCUUUAACUUAUCCAUUCACUUAAAACAUUACCUGGUCAUCUGGUAAGCCCGGGACAGUAAGCCGAGUGGCUG,-0.0048
CUCAAGUCCUGUGCUACACAUCGUAUGUACCGAAUCGGGGUUGGUUGGUUGGGAAAGUAUUAUGUUACGCCGUUCGGAUCUGCACUUCCA,-0.857
UGGGAGGUGGAUUUUGUUUAUGUUUUUAGCUCAUUUCCAGGGGUGGGAAUUUUUUUUUAAUAUGUGUCAUGAAUAAAGUUGUUUUUGAAA,3.04
